Measurements of several laboratories.
Protocols differ between the studies behind these lines. “And” joins repeats or separate records; there may be more than shown.
STK3: Serine/threonine-protein kinase 3 (STK3, Homo sapiens, UniProt Q13188)
TDP1: Tyrosyl-DNA phosphodiesterase 1 (TDP1, Homo sapiens, UniProt Q9NUW8)
Sequence of UniProt Q9NUW8 (whole entry, looked up): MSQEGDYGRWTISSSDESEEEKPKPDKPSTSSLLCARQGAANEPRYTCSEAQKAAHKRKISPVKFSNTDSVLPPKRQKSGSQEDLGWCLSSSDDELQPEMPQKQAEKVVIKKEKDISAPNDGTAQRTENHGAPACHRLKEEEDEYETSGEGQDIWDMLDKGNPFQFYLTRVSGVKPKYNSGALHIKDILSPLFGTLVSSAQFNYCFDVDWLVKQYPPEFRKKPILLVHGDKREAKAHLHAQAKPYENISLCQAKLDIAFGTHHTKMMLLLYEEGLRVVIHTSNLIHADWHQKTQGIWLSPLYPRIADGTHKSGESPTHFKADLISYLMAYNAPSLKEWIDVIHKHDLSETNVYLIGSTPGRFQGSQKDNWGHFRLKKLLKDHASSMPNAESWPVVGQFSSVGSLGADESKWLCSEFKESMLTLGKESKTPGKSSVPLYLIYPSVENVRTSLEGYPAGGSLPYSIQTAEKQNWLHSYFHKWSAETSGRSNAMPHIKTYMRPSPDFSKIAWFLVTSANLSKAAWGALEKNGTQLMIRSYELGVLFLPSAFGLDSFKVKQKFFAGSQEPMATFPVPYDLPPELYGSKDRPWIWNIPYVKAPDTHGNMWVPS

`O=C=[N][Ru-4]123([n]4c5ccc(O)cc5c5c6c(c7cc(F)c[n+]1c7c54)C(=O)NC6=O)[S+]1CC[S+]2CC[S+]3CC1` (centres unmarked) gave a remaining activity of 50% (STK3; enzyme activity; 100 nM, human enzyme, added: 10 µM ATP; relative to: untreated).
With `COc1c(Cl)cccc1Nc1c(-c2ccncc2C#C[C@@]2(C)CCCN2C(=O)/C=C/CN(C)C)[nH]c2c1C(=O)NCC2` the remaining binding was 92% (STK3; binding, competition with immobilised ligand; 3 µM).
`C=CC(=O)N1Cc2nc(-c3cc(-c4cc(Cl)cnc4Cl)c(F)cc3F)n(-c3ccncn3)c2C1` gave an inhibition of 7.9% (STK3; cell-free assay, inhibitor; 1 µM).
For `CNC(=O)C1CCN(c2cc(C)c(F)cc2NC(=O)c2ccc(-c3cc(O)ccc3C)c(C)c2)CC1`, the remaining binding was 100% (STK3; binding, competition with immobilised ligand; 1 µM).
`O=C(O)c1ccc(Nc2c(-c3ccc(CON=CC(=CNc4ccc(Cl)cn4)c4nc5ccccc5o4)cc3)nc3cc(-c4ccccc4)ccn23)cc1` (mixture of isomers) gave an inhibition of 69.5% (TDP1; enzyme activity, inhibitor; 100 µM, unpurified compound).
`C=CC(=O)Nc1cc(-c2nn(C3CCN(CCNC(=O)[C@H](C)CCC45CC6CC(CC(C6)C4)C5)CC3)c3ncnc(N)c23)ccc1Oc1ccccc1` gave an inhibition of 17.8% (STK3; inhibitor, KiNativ profiling; biochemical; 2 µM).
`Nc1ncc2c(n1)-c1c([nH]c3ccc(C4=CCOCC4)cc13)CCC2` gave a remaining binding of 100% (STK3; binding, competition with immobilised ligand; 1 µM).
The remaining binding of `C=CC(=O)N1CCc2ccc(-n3c(=O)ccc4cnc5ccc(-c6cnn(C)c6)cc5c43)cc21` is reported as 100% (STK3; KINOMEscan; 1 µM; relative to: DMSO control).
For `Cc1ccc(C(=O)Nc2ccc(CN3CCN(C)CC3)c(C(F)(F)F)c2)cc1C#Cc1cnc2cccnn12`, the Hill slope was 1.33 (STK3; target engagement, NanoBRET; human cells).
`O=C(Cc1ccc(OCc2ccccc2)cc1)NC1(C(=O)O)CCN(C(=O)c2ccc(-c3cccc(Cl)c3)cc2)CC1` — result for “activity vs control”: 100% (STK3; enzyme activity, inhibitor; 10 µM).
`COc1c(OCCCN2CCOCC2)ccc2c1N=C(NC(=O)c1cnc(N)nc1)N1CCN=C21` gave a remaining activity of 121% (STK3; kinase activity, inhibitor; 1 µM; relative to: untreated control).
For `Cc1cnc2nc1Nc1cccc(c1)COC/C=C/COCc1cc(ccc1OCCN1CCOCC1)N2`, the remaining binding was 92% (STK3; binding, competition with immobilised ligand; 0.1 µM).
For `NC(=O)C[C@H]1CCc2sc3ncnc(O[C@H]4CC[C@H](N5CCOCC5)CC4)c3c21`, the inhibition was 3% (STK3; enzyme activity, inhibitor; 10 µM).
`Cc1ccc(C)c(-c2ccc3nc(NC(=O)C4CCCCC4)nn3c2)c1` gave a remaining activity of 94% (STK3; enzyme activity, Dundee kinase panel; 10 µM).
`Cc1nn(C(=O)OC(C)(C)C)c(C)c1C=NOCc1ccc2nc(-c3ccccc3)c(Nc3ccc(C(=O)O)cc3)n2c1` (mixture of isomers) gave an inhibition of -3.6% (TDP1; enzyme activity, inhibitor; 100 µM, unpurified compound).
For `COc1ccc(NC(=O)Nc2ccc3c(c2)C(=O)N(C(C)CO)CC(C)C(CN(C)Cc2ccc4c(c2)OCO4)O3)cc1` (centres unmarked), the remaining activity was 87% (STK3; kinase activity, KinaseProfiler; 0.03 µM, species human; relative to: control).
For `Cc1cccc(O[C@H]2CCC[C@@H](C(C)CNCc3ccncc3)C2)c1` (relative stereo), the inhibition was 4% (STK3; enzyme activity, inhibitor; 1 µM).
`Cc1cccc(-c2ccc3nc(NC(=O)C4CCCCC4)nn3c2)c1` has a remaining activity of 107% (STK3; enzyme activity, Dundee kinase panel; 10 µM).
With `Nc1ncc(-c2cc(-c3cnn(CC(F)(F)F)c3)ncc2F)nc1C(=O)NC1CNCC(F)C1` (centres unmarked) the remaining activity was 83.2% (STK3; enzyme activity; 1 µM; relative to: DMSO control).
`CNC(=O)C[C@H](Cc1ccc(C#N)cc1)NC(=O)c1cc(-c2ccc(CN[C@H](C)c3ccc(C)cc3)o2)ccc1Cl`: “activity vs control” 101% (STK3; enzyme activity, inhibitor; 1 µM).
For `C=CC(=O)N1CCCC(n2c(=O)c3ncccc3n(Cc3ccc(Oc4ccccc4)cc3)c2=O)C1` (centres unmarked), the remaining binding was 100% (STK3; cell-free assay, competition with immobilised ligand; 1 µM).
For `C=CC(=O)Nc1cccc(-c2cnc3[nH]cc(C(=O)NC(C)(C)C)c3n2)c1`, the inhibition was 73% and 74% (STK3; kinase activity; 0.1 µM).
`COc1cc(Nc2nccc(-c3cnn4nc(OC)ccc34)n2)cc(C(F)(F)F)c1` has a remaining binding of 91% (STK3; binding, competition with immobilised ligand; 1 µM).

A few entries again:
The remaining binding of `C=CC(=O)N1CCc2ccc(-n3c(=O)ccc4cnc5ccc(-c6cnn(C)c6)cc5c43)cc21` is reported as 100% (STK3; KINOMEscan; 1 µM; relative to: DMSO control).
For `Cc1ccc(C(=O)Nc2ccc(CN3CCN(C)CC3)c(C(F)(F)F)c2)cc1C#Cc1cnc2cccnn12`, the Hill slope was 1.33 (STK3; target engagement, NanoBRET; human cells).
